# Assay results from different studies.
# Each numbered part is a random draw from the data of one study; scales do not carry over between parts. Substitutions count along the parent as printed.
# Sequence of UniProt Q92772 (whole entry, looked up): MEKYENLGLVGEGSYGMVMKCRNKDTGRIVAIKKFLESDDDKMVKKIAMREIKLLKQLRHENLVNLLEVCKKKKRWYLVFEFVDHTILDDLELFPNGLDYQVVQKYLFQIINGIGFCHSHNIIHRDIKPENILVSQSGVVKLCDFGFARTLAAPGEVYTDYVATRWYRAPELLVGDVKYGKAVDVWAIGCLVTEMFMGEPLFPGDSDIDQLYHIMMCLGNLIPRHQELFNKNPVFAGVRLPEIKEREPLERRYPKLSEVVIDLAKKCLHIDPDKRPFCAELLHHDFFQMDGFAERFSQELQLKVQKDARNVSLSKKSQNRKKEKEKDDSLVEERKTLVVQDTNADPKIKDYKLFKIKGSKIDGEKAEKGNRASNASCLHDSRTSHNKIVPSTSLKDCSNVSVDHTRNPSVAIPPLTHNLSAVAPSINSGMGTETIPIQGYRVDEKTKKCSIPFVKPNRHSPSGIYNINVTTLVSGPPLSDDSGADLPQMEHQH
# Sequence of UniProt Q15418 (whole entry, looked up): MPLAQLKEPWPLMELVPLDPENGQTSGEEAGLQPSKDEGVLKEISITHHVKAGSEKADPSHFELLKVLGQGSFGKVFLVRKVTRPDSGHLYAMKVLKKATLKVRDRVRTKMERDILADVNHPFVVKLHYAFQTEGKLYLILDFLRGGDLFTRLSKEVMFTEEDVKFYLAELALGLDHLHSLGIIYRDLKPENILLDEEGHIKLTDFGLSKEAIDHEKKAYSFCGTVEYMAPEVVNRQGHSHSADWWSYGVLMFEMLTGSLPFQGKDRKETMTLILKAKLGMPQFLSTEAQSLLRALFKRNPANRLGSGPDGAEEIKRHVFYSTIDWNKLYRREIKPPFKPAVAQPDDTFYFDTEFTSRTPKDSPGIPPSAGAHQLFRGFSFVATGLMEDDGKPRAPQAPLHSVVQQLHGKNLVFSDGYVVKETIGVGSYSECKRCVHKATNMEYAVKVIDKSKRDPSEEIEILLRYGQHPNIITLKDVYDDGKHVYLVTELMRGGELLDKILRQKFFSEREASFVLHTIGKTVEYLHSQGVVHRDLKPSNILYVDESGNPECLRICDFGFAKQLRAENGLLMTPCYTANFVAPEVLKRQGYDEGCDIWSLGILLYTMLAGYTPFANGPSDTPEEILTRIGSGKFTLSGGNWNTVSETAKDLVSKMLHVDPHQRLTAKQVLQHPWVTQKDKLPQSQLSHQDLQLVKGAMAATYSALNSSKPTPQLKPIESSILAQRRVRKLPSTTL
# Sequence of UniProt O95382 (whole entry, looked up): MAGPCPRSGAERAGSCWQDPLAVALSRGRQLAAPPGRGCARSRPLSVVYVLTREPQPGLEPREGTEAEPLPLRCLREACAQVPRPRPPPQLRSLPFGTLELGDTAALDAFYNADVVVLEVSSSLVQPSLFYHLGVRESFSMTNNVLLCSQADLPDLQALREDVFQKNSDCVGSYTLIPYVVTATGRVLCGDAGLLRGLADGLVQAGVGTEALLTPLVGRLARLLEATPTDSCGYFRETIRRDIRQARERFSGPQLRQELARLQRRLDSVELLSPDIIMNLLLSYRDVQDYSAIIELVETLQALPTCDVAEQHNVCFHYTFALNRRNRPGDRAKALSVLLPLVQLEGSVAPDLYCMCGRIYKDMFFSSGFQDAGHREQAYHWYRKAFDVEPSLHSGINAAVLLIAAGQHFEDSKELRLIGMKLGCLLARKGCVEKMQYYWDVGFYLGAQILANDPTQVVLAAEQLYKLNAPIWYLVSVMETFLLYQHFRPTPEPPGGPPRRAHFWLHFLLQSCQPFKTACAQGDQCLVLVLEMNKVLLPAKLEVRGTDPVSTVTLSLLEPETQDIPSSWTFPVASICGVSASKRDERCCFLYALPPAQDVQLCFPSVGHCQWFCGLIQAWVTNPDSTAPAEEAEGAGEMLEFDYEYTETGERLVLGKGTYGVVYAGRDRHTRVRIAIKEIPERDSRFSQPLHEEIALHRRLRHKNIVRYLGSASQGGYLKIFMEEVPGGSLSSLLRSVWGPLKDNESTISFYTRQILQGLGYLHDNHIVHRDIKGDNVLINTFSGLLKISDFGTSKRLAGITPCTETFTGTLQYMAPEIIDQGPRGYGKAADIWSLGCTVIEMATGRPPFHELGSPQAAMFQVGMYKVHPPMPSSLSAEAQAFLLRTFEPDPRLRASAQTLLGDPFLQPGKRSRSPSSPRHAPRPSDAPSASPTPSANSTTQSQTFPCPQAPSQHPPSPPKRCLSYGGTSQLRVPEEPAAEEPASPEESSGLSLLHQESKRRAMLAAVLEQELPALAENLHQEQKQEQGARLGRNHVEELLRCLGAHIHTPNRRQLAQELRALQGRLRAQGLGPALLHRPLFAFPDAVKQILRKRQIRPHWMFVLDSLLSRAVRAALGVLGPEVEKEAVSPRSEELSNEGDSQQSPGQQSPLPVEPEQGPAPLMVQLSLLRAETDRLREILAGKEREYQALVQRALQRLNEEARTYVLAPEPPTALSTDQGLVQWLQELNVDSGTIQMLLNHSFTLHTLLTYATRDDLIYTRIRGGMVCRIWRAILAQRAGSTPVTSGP
# Sequence of UniProt Q86YV6 (whole entry, looked up): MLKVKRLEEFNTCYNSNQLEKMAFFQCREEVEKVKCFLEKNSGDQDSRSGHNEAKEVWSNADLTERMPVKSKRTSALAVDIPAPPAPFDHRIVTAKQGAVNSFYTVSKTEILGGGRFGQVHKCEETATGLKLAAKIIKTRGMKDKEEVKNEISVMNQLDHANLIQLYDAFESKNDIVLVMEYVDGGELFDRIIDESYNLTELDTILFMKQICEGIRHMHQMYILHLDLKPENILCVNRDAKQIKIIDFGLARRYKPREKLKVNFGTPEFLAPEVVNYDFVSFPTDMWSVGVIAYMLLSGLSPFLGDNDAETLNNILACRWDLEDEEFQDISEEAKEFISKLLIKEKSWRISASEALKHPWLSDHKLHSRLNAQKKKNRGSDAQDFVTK
# Sequence of UniProt Q9Y5S2 (whole entry, looked up): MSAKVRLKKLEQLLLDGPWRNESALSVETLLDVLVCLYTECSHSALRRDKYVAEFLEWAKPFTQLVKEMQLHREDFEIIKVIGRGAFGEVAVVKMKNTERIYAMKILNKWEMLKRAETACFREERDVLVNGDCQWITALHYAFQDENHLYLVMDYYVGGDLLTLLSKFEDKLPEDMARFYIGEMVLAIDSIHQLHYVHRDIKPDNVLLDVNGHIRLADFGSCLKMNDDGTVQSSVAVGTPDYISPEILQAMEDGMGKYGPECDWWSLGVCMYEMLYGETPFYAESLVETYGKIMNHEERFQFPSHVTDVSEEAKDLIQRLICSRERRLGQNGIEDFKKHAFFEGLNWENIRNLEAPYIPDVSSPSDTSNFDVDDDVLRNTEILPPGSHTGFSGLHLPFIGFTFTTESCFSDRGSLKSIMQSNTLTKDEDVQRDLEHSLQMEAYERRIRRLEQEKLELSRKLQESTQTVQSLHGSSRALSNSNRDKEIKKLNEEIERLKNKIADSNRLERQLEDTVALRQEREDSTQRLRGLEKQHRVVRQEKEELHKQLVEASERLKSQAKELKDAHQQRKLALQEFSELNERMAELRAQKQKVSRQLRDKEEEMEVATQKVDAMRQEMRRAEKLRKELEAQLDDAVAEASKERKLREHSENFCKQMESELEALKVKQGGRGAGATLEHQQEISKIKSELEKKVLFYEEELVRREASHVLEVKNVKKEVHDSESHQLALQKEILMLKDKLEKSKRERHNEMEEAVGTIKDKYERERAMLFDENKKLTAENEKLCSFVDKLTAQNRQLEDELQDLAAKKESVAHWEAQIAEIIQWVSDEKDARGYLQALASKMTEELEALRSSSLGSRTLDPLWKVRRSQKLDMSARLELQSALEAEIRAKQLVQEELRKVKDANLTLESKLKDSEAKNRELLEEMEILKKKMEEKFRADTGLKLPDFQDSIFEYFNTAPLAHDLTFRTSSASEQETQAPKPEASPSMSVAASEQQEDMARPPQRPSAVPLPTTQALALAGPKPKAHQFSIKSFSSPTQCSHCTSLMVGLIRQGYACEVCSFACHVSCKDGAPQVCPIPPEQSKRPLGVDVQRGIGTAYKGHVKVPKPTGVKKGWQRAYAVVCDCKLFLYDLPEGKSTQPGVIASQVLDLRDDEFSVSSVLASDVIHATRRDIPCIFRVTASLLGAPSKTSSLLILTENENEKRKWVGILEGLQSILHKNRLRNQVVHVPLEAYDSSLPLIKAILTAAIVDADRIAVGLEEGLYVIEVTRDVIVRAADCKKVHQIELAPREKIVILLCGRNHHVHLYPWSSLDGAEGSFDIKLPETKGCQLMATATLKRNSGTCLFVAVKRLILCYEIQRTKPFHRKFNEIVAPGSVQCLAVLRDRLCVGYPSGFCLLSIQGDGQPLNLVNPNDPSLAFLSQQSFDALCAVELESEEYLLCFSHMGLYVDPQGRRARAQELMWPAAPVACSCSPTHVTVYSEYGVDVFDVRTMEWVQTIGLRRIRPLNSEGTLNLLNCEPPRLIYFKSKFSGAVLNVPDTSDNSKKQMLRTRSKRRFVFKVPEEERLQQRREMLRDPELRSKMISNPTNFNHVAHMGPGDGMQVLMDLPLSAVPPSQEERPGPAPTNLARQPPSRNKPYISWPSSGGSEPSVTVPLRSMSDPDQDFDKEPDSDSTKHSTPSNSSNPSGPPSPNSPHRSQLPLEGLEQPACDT
# Sequence of UniProt P46734 (whole entry, looked up): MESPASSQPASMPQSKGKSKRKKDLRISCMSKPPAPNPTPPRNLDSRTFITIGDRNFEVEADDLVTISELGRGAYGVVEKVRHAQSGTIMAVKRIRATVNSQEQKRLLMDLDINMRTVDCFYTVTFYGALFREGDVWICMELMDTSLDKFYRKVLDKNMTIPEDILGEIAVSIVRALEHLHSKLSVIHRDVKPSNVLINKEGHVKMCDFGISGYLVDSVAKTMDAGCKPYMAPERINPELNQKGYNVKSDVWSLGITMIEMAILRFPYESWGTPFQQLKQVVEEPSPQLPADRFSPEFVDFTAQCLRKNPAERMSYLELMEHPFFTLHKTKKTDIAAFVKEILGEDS

# Series 1
# Target: CCNB1, cyclin fold, Cln2 fusion (human)
# Technique: yeast growth competition, sequencing
# Sample: yeast
# Setting: strong parent motif
# Relative to: not given
# Reading: higher = stronger binding
# Parent: viral docking peptide; YKVKRRLVFGADD
Change,normalised enrichment score
L7G,0.287
F9M,0.55
G10E,4.85
L7S,0.582
R5I,0.884
L7D,0.0507
R5F,0.607
L7A,0.191
V3D,0.172
V8N,3.82
A11I,3.53
L7W,0.255
F9P,0.374
D12H,2.24
R5C,2.36
F9N,0.396
V3Q,0.641
G10S,3.7
R5G,0.333
R5A,0.912
F9S,0.143
A11K,3.3
L7Y,0.314
K4S,3.73
K4P,1.73

# Series 2
# Target: Protein C-ets-1 (ETS1, Homo sapiens, UniProt P14921, residues 1-441, full length assumed)
# Technique: protein-binding microarray
# Molecule type: double-stranded DNA, one strand shown
# Sample: in vitro
# Tested at: not given
# Setting: k-mer, scored over probes, only values ≥0.25
# Reading: higher = stronger binding
# Residues (chain): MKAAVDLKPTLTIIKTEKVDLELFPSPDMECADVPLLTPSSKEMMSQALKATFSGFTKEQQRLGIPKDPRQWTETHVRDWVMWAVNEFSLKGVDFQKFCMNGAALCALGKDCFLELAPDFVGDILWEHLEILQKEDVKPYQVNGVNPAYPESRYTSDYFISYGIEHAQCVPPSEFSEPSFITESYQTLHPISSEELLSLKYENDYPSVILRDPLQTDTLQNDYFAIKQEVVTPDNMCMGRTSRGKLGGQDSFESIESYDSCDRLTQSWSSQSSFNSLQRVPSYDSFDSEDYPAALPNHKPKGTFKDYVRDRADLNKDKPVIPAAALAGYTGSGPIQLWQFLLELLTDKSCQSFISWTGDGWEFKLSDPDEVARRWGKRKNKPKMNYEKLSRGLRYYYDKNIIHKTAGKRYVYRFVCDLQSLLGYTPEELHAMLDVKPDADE
Oligonucleotide,E-score
AGGAAATA,0.46
GCGTCGGA,0.253
GGATATCC,0.407
GGATGGGA,0.286
CCTCTCCC,0.28
AGCTTTCC,0.272
CGGATGTC,0.478
CCAGGAAA,0.432

# Series 3
# Compound: Cn1cncc1[C@@](O)(COc1ccc(C#N)cc1-c1ccc(OC(F)(F)F)cc1)c1ccc(C#N)cc1
# Technique: competition with immobilised ligand
# Tested at: 1 µM
target,assay,remaining binding [%]
"Mitogen-activated protein kinase kinase kinase 6 (MAP3K6, Homo sapiens, UniProt O95382)",cell-free assay,100
"Dual specificity mitogen-activated protein kinase kinase 3 (MAP2K3, Homo sapiens, UniProt P46734)",cell-free assay,100
"Ribosomal protein S6 kinase alpha-1, N-terminal kinase domain (RPS6KA1, Homo sapiens, UniProt Q15418)",cell-free assay,72
"Cyclin-dependent kinase-like 2 (CDKL2, Homo sapiens, UniProt Q92772)",binding,93
"Myosin light chain kinase family member 4 (MYLK4, Homo sapiens, UniProt Q86YV6)",cell-free assay,97
"Serine/threonine-protein kinase MRCK beta (CDC42BPB, Homo sapiens, UniProt Q9Y5S2)",cell-free assay,95
"Serine/threonine-protein kinase D2 (PRKD2, Homo sapiens, UniProt Q9BZL6)",cell-free assay,100

# Series 4
# Target: tungstate, free oxyanion
# Technique: microfluidic competitive inhibition
# Sample: in vitro, cell-free expressed
# Tested at: not given
# Setting: derived from inhibition constants, unchanged parent 2230 nM
# Reading: lower = stronger binding
# Parent: PafA, mature enzyme, eGFP fusion (Elizabethkingia meningoseptica, UniProt Q9KJX5); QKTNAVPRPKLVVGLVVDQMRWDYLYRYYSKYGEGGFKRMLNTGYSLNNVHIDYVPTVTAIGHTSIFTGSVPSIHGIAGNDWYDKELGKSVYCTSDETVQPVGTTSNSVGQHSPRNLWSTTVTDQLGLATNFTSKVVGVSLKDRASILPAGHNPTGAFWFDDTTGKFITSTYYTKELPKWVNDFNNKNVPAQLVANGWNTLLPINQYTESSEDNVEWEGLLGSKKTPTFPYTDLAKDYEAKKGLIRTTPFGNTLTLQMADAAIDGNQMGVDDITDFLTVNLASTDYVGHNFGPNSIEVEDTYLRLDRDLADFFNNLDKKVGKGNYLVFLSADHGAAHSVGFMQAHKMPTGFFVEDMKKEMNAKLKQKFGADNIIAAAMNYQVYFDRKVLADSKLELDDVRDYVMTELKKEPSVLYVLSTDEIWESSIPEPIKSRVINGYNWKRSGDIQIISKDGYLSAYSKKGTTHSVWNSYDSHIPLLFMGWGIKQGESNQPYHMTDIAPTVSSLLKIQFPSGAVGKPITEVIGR
Change,oxyanion analog dissociation constant
E522V,6.49 µM
E522G,2.3 µM
V339G,1.86 µM
Y207V,1.95 µM
P430G,1.66 µM
P101V,1.96 µM

# Series 5
# Target: Sox, HMG box (Pigoraptor chileana)
# Technique: Spec-seq
# Molecule type: double-stranded DNA, one strand shown
# Sample: in vitro
# Tested at: not given
# Setting: whole probe, mean of replicates
# Relative to: not given
# Reading: lower = stronger binding
# Constant ends, left off below: GAGTCGTCTCGTCAGCAC … CCGTAGAGCACTCAGGTC
# Target sequence (chain): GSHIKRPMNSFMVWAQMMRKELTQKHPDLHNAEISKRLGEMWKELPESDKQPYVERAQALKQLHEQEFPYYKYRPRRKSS
Oligonucleotide,relative binding energy [ln ratio]
CATGATT,0.499
CATACTA,-0.226
CATGTCC,0.811
CATATTT,0.39
CAGTGTT,-0.588
GGCAGTT,0.855
CATGTGT,0.429
CGGTGTT,0.665

# Some of these lines once more (series 4):
Change,oxyanion analog dissociation constant
E522V,6.49 µM
E522G,2.3 µM
V339G,1.86 µM
Y207V,1.95 µM
P430G,1.66 µM
P101V,1.96 µM
